Published values from different studies.
Protocols differ between the studies behind these lines. Numbers after ± are the reported error.
UniProt P33533, sequence (whole entry, looked up): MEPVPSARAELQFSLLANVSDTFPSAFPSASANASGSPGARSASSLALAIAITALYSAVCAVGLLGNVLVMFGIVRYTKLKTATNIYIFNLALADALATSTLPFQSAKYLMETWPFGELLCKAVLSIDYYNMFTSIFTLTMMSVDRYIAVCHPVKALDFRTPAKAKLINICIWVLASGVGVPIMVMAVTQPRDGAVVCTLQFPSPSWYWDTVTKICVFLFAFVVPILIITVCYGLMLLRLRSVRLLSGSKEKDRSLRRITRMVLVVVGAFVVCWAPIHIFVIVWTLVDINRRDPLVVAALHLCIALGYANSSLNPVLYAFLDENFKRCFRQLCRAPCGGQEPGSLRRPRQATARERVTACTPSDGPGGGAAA
UniProt Q9NSD7, sequence (whole entry, looked up): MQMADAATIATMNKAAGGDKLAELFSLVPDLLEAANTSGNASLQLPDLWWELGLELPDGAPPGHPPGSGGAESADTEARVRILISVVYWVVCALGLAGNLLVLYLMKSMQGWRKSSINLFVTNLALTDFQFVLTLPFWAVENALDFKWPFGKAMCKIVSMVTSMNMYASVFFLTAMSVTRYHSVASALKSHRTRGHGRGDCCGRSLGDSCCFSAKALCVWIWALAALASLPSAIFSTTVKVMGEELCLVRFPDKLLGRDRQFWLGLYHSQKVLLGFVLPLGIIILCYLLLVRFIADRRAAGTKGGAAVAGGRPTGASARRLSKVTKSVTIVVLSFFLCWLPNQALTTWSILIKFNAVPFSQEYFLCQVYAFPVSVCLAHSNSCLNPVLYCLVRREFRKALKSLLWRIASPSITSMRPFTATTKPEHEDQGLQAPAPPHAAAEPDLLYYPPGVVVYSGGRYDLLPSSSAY
UniProt P41143, sequence (whole entry, looked up): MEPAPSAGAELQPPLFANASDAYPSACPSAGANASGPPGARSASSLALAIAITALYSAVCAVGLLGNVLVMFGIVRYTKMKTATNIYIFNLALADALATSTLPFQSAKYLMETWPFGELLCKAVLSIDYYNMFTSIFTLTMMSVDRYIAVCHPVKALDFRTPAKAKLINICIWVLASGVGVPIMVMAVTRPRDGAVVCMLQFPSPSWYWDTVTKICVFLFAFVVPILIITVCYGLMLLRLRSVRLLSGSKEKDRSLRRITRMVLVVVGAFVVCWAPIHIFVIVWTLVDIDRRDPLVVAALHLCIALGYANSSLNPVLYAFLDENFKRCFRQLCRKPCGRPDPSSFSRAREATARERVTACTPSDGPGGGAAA
UniProt P06401, sequence (whole entry, looked up): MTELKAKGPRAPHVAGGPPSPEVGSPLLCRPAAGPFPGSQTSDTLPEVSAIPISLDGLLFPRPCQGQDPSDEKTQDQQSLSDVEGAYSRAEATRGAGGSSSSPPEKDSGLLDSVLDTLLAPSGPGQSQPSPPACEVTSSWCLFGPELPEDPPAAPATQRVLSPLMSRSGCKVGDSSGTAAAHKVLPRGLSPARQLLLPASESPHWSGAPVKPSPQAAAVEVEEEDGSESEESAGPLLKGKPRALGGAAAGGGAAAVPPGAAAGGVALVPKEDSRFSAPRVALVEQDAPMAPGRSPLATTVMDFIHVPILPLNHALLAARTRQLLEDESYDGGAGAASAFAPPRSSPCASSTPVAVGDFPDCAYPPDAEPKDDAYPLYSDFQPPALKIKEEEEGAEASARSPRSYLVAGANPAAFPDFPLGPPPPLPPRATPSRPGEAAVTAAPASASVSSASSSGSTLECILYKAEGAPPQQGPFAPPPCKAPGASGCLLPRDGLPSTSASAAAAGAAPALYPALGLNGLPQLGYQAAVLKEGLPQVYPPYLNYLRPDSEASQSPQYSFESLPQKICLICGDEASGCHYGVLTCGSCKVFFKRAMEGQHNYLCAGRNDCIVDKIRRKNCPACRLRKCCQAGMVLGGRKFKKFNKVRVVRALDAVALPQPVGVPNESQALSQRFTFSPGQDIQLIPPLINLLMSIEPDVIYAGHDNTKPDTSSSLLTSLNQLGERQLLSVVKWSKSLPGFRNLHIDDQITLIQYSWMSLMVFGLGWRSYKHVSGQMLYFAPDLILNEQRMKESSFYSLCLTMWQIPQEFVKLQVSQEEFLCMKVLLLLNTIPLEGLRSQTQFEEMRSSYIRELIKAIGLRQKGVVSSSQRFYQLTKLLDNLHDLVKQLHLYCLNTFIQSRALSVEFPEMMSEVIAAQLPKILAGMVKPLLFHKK
UniProt P43220, sequence (whole entry, looked up): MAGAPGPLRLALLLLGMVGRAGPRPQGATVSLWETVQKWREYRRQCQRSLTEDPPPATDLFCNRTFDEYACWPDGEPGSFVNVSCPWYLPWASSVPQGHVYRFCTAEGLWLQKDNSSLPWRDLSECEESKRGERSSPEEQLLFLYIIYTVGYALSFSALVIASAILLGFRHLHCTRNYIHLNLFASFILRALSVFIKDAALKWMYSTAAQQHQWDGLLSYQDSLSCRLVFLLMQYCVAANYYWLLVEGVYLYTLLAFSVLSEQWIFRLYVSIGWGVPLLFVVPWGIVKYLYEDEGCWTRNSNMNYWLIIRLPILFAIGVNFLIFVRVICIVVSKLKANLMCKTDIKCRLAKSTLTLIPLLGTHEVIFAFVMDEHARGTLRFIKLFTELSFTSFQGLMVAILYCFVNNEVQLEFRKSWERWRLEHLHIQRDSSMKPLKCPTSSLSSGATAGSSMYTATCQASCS
UniProt P35462, sequence (whole entry, looked up): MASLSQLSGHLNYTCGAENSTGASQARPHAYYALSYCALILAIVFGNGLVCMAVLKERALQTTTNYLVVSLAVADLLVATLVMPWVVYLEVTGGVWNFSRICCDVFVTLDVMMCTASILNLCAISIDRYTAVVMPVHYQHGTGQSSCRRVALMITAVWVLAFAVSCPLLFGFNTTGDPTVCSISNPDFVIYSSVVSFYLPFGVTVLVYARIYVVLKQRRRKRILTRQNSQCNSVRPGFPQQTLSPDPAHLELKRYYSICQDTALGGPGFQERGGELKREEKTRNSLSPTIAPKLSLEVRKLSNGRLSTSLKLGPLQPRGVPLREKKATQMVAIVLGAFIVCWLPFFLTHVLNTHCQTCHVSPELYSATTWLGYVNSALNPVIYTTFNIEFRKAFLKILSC
UniProt Q96NY8, sequence (whole entry, looked up): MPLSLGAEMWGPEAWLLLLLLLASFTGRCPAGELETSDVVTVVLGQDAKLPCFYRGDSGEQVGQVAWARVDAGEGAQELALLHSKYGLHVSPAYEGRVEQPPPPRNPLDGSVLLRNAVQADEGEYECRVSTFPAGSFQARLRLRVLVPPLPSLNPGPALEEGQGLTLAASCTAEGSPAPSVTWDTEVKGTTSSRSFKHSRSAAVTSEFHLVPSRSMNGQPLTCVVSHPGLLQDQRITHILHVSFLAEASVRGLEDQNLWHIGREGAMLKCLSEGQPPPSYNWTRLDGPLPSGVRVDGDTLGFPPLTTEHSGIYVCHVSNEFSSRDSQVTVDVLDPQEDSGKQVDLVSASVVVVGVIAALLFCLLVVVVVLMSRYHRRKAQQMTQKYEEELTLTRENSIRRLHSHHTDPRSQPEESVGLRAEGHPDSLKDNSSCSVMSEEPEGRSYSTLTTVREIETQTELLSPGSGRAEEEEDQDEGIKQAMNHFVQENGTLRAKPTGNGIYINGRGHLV
UniProt P21554, sequence (whole entry, looked up): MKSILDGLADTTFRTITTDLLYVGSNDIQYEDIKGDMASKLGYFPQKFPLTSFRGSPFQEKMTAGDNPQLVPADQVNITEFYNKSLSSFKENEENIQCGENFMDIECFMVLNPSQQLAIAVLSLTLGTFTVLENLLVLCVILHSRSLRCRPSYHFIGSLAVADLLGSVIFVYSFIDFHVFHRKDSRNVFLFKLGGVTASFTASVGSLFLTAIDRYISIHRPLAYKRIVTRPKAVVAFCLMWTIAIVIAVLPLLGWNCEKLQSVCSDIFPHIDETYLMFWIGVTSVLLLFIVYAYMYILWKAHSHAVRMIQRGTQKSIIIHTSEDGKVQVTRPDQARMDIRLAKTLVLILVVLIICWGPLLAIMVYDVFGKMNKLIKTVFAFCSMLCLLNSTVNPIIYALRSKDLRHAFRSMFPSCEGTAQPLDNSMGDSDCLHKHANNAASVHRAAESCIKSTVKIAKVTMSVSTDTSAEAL

CC1(C(=O)O)CCCC2(C)C1CCC1(C)c3cocc3CCC12 (stereo not shown)  EC50 (Progesterone receptor (PGR, Homo sapiens, UniProt P06401); binding, fluorescence polarization competition; ligand-binding domain): 5600 nM
Cc1cc(O)cc(C)c1CC(N)C(=O)NC1CCNc2c(CCc3ccccc3)cc(Cc3ccccc3)cc21 (stereo not shown)  EC50 (Delta-type opioid receptor (Oprd1, Rattus norvegicus, UniProt P33533); GTPγS binding, agonist, radiometric; cell membranes): 33 nM
CC[C@H](C)[C@H](NC(=O)[C@H](Cc1c[nH]cn1)NC(=O)[C@@H](NC(=O)[C@H](CCC(N)=O)NC(=O)[C@H](CCCNC(=N)N)NC(=O)[C@@H](NC(=O)[C@@H](N)CCC(=O)O)[C@@H](C)CC)[C@@H](C)O)C(=O)N[C@@H](Cc1ccccc1)C(=O)N[C@@H](Cc1ccccc1)C(=O)N[C@@H](Cc1ccccc1)C(=O)N[C@@H](Cc1ccccc1)C(=O)N[C@@H](Cc1ccccc1)C(=O)N[C@@H](Cc1ccccc1)C(=O)N[C@@H](CCCCN)C(=O)N[C@@H](CCCNC(=N)N)C(=O)N[C@@H](CCCNC(=N)N)C(=O)O  EC50 (histidine kinase ComD (Streptococcus pneumoniae serotype 4, UniProt A0A0H2US84); reporter gene, agonist; Streptococcus pneumoniae, TIGR4 comX::lacZ; 30 min, pH 7.3, 37 °C): > 10000 nM
O=C(c1ccc2c(c1)c1ccccc1n2CC1CCOCC1)c1cccc2ccccc12  EC50 (Cannabinoid receptor 1 (CNR1, Homo sapiens, UniProt P21554); GTPγS binding, agonist, radiometric; cell membranes): 12.9 nM
CC(C)C[C@@H]1NC(=O)[C@H](Cc2ccc(O)cc2)NC(=O)[C@H](CCCNC(=N)N)NC(=O)[C@H](C(C)C)NC(=O)[C@@H]2CCCN2C(=O)[C@H](Cc2ccccc2)NC(=O)[C@H](C)NC(=O)[C@H](CC(N)=O)NC(=O)[C@H](Cc2ccc(OS(=O)(=O)F)cc2)NC(=O)[C@@H](Cc2ccccc2)NC(=O)CSC[C@@H](C(=O)NCCOCCOCC(=O)NCCOCCOCC(=O)N[C@@H](CCCCN=[N+]=[N-])C(N)=O)NC(=O)[C@H](Cc2c[nH]c3ccccc23)NC(=O)[C@H](CCCNC(=N)N)NC(=O)[C@H](CCCCN)NC1=O  EC50 (Nectin-4, extracellular domain (Homo sapiens, UniProt Q96NY8); covalent labelling, in-gel fluorescence; 4 h, 37 °C): 33000 ± 8000 nM
NCCCC[C@H](N)C(=O)N[C@@H](Cc1ccc(O)cc1)C(=O)N[C@@H](CC(N)=O)C(=O)N1CCC[C@H]1C(=O)N[C@H]1CSC(=O)[C@H](Cc2ccccc2)NC(=O)[C@H](Cc2ccc(O)cc2)NC(=O)[C@H](CC(N)=O)NC(=O)[C@H](CO)NC1=O  EC50 (Accessory gene regulator protein C (Staphylococcus epidermidis, UniProt Q8VSX2)): > 2000 nM
CC(N)CCc1ccc(Cl)cc1 (racemic)  EC50 (D(3) dopamine receptor (DRD3, Homo sapiens, UniProt P35462); phosphorylation in cells, agonist, western blot): 84.6 nM
CC[C@H](C)[C@@H]1NC(=O)[C@H](C(C)C)NC(=O)[C@H](C)NC(=O)[C@H](CCCNC(=N)N)NC(=O)[C@H]([C@@H](C)CC)NC(=O)[C@](C)(NC(=O)[C@H](CCC(=O)O)NC(=O)[C@H](CCCNC(=N)N)NC(=O)CNC(=O)[C@H](CS)NC(=O)[C@H](CC(C)C)NC(=O)[C@H](CCCNC(=N)N)NC(=O)[C@@H](NC(=O)CNC(=O)[C@H](Cc2ccc(O)cc2)NC(=O)[C@@H]2CCCN2C(=O)[C@H](C)NC(=O)[C@H](C)NC(=O)[C@@H](N)CCCNC(=N)N)C(C)C)CCCC=CCCCCCC[C@@](C)(C(=O)N[C@@H](CS)C(=O)NCC(=O)NCC(=O)N[C@@H](CO)C(=O)N[C@@H](CCCNC(=N)N)C(=O)N[C@@H](Cc2c[nH]c3ccccc23)C(=O)O)NC(=O)[C@H](Cc2ccccc2)NC1=O  EC50 (Relaxin-3 receptor 1 (RXFP3, Homo sapiens, UniProt Q9NSD7); cAMP, agonist): 3 nM
CCCC[C@@H]1NC(=O)[C@H](Cc2ccccc2)NC(=O)CNC(=O)[C@H](NC(=O)[C@@H](N)Cc2ccc(O)cc2)C(C)(C)SSC(C)(C)[C@@H](C(=O)N[C@@H](Cc2c[nH]c3ccccc23)C(=O)NCc2cc(C(F)(F)F)cc(C(F)(F)F)c2)NC(=O)[C@@H]2CCCN2C1=O  EC50 (Delta-type opioid receptor (OPRD1, Homo sapiens, UniProt P41143); GTPγS binding, agonist, radiometric; cell membranes): 530 nM
CCN1CCC[C@@H]1CNC(=O)c1cn(C2CCCC2)c(=O)c2c1c1ccccc1n2C  EC50 (Glucagon-like peptide 1 receptor (GLP1R, Homo sapiens, UniProt P43220); calcium mobilization, positive allosteric modulator; 9-3-H cells; added: GLP-1 at EC20): > 10000 nM

Repeated from above:
CC[C@H](C)[C@@H]1NC(=O)[C@H](C(C)C)NC(=O)[C@H](C)NC(=O)[C@H](CCCNC(=N)N)NC(=O)[C@H]([C@@H](C)CC)NC(=O)[C@](C)(NC(=O)[C@H](CCC(=O)O)NC(=O)[C@H](CCCNC(=N)N)NC(=O)CNC(=O)[C@H](CS)NC(=O)[C@H](CC(C)C)NC(=O)[C@H](CCCNC(=N)N)NC(=O)[C@@H](NC(=O)CNC(=O)[C@H](Cc2ccc(O)cc2)NC(=O)[C@@H]2CCCN2C(=O)[C@H](C)NC(=O)[C@H](C)NC(=O)[C@@H](N)CCCNC(=N)N)C(C)C)CCCC=CCCCCCC[C@@](C)(C(=O)N[C@@H](CS)C(=O)NCC(=O)NCC(=O)N[C@@H](CO)C(=O)N[C@@H](CCCNC(=N)N)C(=O)N[C@@H](Cc2c[nH]c3ccccc23)C(=O)O)NC(=O)[C@H](Cc2ccccc2)NC1=O  EC50 (Relaxin-3 receptor 1 (RXFP3, Homo sapiens, UniProt Q9NSD7); cAMP, agonist): 3 nM
